Measured values pooled from the literature.
Numbered parts are unrelated; each lists some results of a single study.

Set 1 — technique: protein-binding microarray; molecule type: double-stranded DNA, one strand shown; medium: in vitro; concentration: 250 nM; notes: 60-bp whole probe; together with: salmon DNA 0.4 mg/ml; reference: random background probes; reading: higher = stronger binding; constant ends, left off below: GCCTAGCAC … GTCTTGATTCGCTTGACGCTGCTG
Target: Interferon regulatory factor 5, full length, phosphomimetic (IRF5, Homo sapiens, UniProt Q13568-2, residues 1-514, K96S/S451D/S453D/S456D/S462D)
Oligonucleotide | log fluorescence [z-score]
TTAGGTACCGGTCTCGGTTAGTGCTAG | 0.342
GACGAACTGGGGTATCCAGACGTGCTA | -0.776
GACGGGTTCGACTATCGGGACGTGCTA | 1.08
GACGGACTAGGGTTTCGGGACGTGCTA | 0.953
GACGATATGGGGTTTCGAGACGTGCTA | 1.45
TTAGATATCGCGTTTCGATTAGTGCTA | 5.45
TCATGGTTGAACATGAAACTGTGCTAG | 0.408
GACGGAGTGGACTATCGGGACGTGCTA | 0.95
TCATTTCTCTCTGTGACACTGTGCTAG | 1.69
GACGGTCTCCTACTGCTGACGTGCTAG | -0.401
TTAGGTATCGGGTTTCTGTTAGTGCTA | 5.07
TTAGGACTGGATATCGGTTAGTGCTAG | 2.38
GACGGTTTCCTTAACCTGACGTGCTAG | 0.364
TTAGATCTCAGTCTTGATTAGTGCTAG | 0.113
GACCGTTTCGGTTTCGGGACGTGCTAG | 10.6
GACGATCTCCTTCTCCTGACGTGCTAG | -0.00189
TTAGGTTTCGGGTATCGGGTAGTGCTA | 9.17
TTAGTTTCCAGTTTCGATTAGTGCTAG | 9.77
ATGTCCTCCTCTCTCTTTCCGTGCTAG | 0.32
CCTAGTTTCATTCCTGATCTGTGCTAG | 4.79
GACGGACTGGGCACTGGGGACGTGCTA | -0.68
TTTGGTATCGGGACTGGGTTAGTGCTA | 3.85
TCAATTCTAGCCTATAGAACTGTGCTA | 0.192
TTAGGTATCGGGTTTCGGTTCGTGCTA | 7.96
TTAGGACTGGACTTTCGGTTGGTGCTA | 9.06

Set 2 — technique: RNA Bind-n-Seq; molecule type: RNA; medium: in vitro; concentration: not given; reference: input RNA pool; reading: higher = stronger binding
Target: RING finger protein unkempt homolog, zinc fingers 1-6, GST-SBP tag (UNK, Homo sapiens, UniProt Q9C0B0, residues 30-357)
Notes: RNA with constant flanks, human and mouse sites, ends assumed
Constant ends, left off below: GGGAGUUCUACAGUCCGACGAUC … CAACAGAGGAUUGAGCAUCA
Construct (chain): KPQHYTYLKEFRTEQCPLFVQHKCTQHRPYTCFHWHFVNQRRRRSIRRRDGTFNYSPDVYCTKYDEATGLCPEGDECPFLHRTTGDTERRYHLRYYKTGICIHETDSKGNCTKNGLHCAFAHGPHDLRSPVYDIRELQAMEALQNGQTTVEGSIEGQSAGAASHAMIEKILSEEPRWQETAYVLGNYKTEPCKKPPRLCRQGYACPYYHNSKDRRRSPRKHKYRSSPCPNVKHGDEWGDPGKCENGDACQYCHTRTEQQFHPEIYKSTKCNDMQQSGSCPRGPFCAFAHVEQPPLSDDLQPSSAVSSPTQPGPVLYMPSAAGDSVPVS
Oligonucleotide | bound/input enrichment [ratio]
CACUAUAGACCUUUCCUCACUAGUUUCCAGCCUGACUUUAUUUCAGCCUUGGCUGUAGUCUAUUUCUAGCUUUUGAGGAGGUCUGGUUUUUACAGCUGAAAUCUAUUCUCUACCCACUUU | 0.327
AGUCUGCAUGCUAUGGAGUCCACCAGAGAGUCACUGAAAGCGGAGCUAGGAACGGAUUUGCUUUCUCAACUCAGUCUGGAAGAUCAGAAAAGAGUCGACGCUCUGAAUGAUGAAAUCCGU | 0.0864
UUUACUGUUUUGGGGAGCACAGCCAGAGAGAGGGCUAAACACUCAGGCGACUACUUUACUCUUUUAAGACAUCUUCUUAAUUACGCCUACAACAGUAACAUUAAUGUGCCCAAUGCUGAA | 0.431
CAUGGGUUUUAAGUGCUUGUGGCUCUCUGAAGCUUAAGUGAGGAUUUCCUUGCAAUGAGUAGAAUUUCCCUUCUGUCCCUUGUCACAAGUUUAAAAACCUCACAGCUUGUAUAAUGUAAU | 0.191
GAUGGCAAUGGCCAGGAGGCCUAUGCCUCAAGCUGUAACAGUGGCACGUCCUACAAUUCCAUUAGCUCAGUGGUGUCCCGGUGAGGGCAGCCUUGGCUUGGGUAGGGUCUUUAUGGACUG | 0.153
AAAUACAAGCAAGCUUUACUACAGUAUAAGAAGAUCGUGUCUUGGCUGGAAUAUGAGUCUAGUUUUUCCAAUGAGGAAGCACAGAAAGCACAGGCCCUUCGACUGGCCUCUCACCUCAAC | 0.233
ACGGCCAUGGCAACUAGUCUCACGAAUGUAGGAAACUCAUUUAGUGGUCCAGCUAAUCCUUUAGUGUCUAGAUCUAAUAAGUUUCAGAACUCGUCAGUGGAAGAUGAUGAUGAUGUUGUU | 10.3
GAUAUAGACGGGGGCUUCGUGCACUCGGACGGUGCCAUCUCCUGCCACGACAUGUUUGAUUUUCUUCAUCUCACAGGAGGGGGCUAUGCAAAGAUCUGCAAACCCCUCCAUGAACUGAUC | 0.156
GUUUUGAAUAUCUUGUGUAAGCAAUUUCAUUUUUUUCCCCCACUGUCAGAAAGCUAAGGGAAGCUUCAGAGUUCUAAUCCAGUUGCAUGUAGGACAAAGGAUAUACUUUAAAUAAAGACC | 0.637
AGGGAAGUCUGAAAUCCACACUGCAUUUUUAAUGAAUCCAAAUAACUUUAUUACGUUCUUUCAAAUGAAAAGGACAAGUUUUAUACAGUGAGAAUUGGGUGAUUUUUUUUUUUUUUACAU | 3.03
CCAAUCGUGGAGCAGUACUUGAAGACAAAAAAGAACUCUAGUCAUUUAAUCAUGAAAUACAUUAGCUGCCGGCUGGUGACAUUUGUGGUUAUACUGUUGGCAUGUAUCUACUUGAGCUAU | 0.229

Set 3 — technique: RNA Bind-n-Seq; molecule type: RNA; medium: in vitro; concentration: 365 nM; reference: no-protein control; reading: higher = stronger binding
Target: RNA binding protein fox-1 homolog 2, RRM domain, GST-SBP tag (RBFOX2, Homo sapiens, UniProt O43251-10, residues 100-194)
Notes: natural RNA segment, single round, ends assumed
Constant ends, left off below: GGGAGUUCUACAGUCCGACGAUC … UGGAAUUCUCGGGUGCCAA
Construct (chain): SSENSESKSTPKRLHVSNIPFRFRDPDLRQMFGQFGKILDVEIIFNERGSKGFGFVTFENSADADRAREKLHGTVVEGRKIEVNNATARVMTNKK
Oligonucleotide | RBNS enrichment (R)
AUUCACUUGUUCAUUCAAGUAUUUAUUGAAUACCUGCCUCAAGCUAGAGAGAAAAGAGAGUGCGCUUUGGAAAUUUAUUCCAGUUUUCAGCCUACAGCAGAUUAUCAGCU | 0.318
GCCUUCUUUUCCCACGCCUCUAACUUAAUGUUUUAUAUUUGAAUUGUGUGGCUCAAGGGUCAUGUAUAGUUUGUGGAAUUUUUCCAAUUAAAUGUCUUGCUUACAGUGGU | 0.999
AGUCCUAUAUCUUCAUUCAGCAACCCAAAUAUUACAUACAUUUCCAGAAUUUUCUUGAUUGUUACUUUCAGUGAUAUUCUUUAUAUUGGGUACAGGAGAAGUUUGGUGUU | 0.456
CCUGUGGCCAUGAAGUCGUCUCCUGCCUCGAUGUCAGUGAAUCCGGCACCUUCCUAGGCCUGGGCACAGUCACUGGCUCUGUUGCCAUCUACAUAGCUUUCUCUCUCCAG | 0.299
AGGAAAGUUAAAAACAAAUAUGCACAGUACAAAAUAGAUCUGUGGCUUUUUUUUUUUAAAGUAAGAAUAGCUUGUUAGUAUAUCAAUGUUCAUGGCUAAUGUUAUCUCAU | 0.601
GUGUUUGCAUGAGUGUGUGUAGCUUCAUGCUUUGGGAGUUGGCAAGAGGAAGAGGGAGGGAAGGGGAGCAAGCAAAUCCAGGUCUUUUCUUGUACCAGUGGAACCUGCUC | 3.13
CACAGGGCAGGUAUGUGGGAGGCUGGGCUGCUUAGUGUCUUCUAGUCACCUCUGCUUGGGCUGAUUGACAGAGGUCAGUCAUUACAGCCCCUUAUGCCUCUUCCAUGGGA | 0.906
AUUUUCCCAGUAUCUCCAGGCCUUCCUUAGUCUGUCCCACCGUGCAUCUGCUUACCUCAUGGCGCUGUUUGUUUCAGAUUUUGAAAGCUCACAGGUGUUUGUUGGAAUCA | 1.35
UUGGGCACUUGCCUUGAUUCCUUUUAUUAUUGGAAGUCAGAUACCCCCUCUCCAAAGUGAGCAGGCAGGUUUUAAACAGCUUAACUACUGACCAGUUAUAAGACUCGCUU | 0.707
UUAUAGUUGCCUUUCUAACUACUUAGCACAGUUUGAGAAUACGUUAAUUGCUAUUUACUAUUUAAAAAGUUUUACUGAAAUCAGUCCAUAACAUUAAGAUGAGCCCUAAU | 0.403
AGCAUCCUUUGGAGCAGGUCAACCUGAGGCUCCUUUGGCUUACAUCUAAGUUGUCCAGGUGCUCAGCUCCUGUGUGCCUGGAUGAUGAGAGGGCUCUAGGGCUCUUUCAG | 0.165
AUAGAAAUGUAUAUUUUAUUAUGCAAUGCCUUAGUCAUAAACUGGGCUCAAACAAUUCUCAGCCUAAAACACUGUUGUCUUUUAAAAUGCUUCCAACCCAAAGGCCUUUC | 0.414

Set 4 — technique: protein-binding microarray; molecule type: double-stranded DNA, one strand shown; medium: in vitro; concentration: not given; reading: higher = stronger binding
Target: Transcription factor Sp1 (SP1, Homo sapiens, UniProt P08047, residues 1-785, full length assumed)
Sequence of UniProt P08047 (whole entry, looked up): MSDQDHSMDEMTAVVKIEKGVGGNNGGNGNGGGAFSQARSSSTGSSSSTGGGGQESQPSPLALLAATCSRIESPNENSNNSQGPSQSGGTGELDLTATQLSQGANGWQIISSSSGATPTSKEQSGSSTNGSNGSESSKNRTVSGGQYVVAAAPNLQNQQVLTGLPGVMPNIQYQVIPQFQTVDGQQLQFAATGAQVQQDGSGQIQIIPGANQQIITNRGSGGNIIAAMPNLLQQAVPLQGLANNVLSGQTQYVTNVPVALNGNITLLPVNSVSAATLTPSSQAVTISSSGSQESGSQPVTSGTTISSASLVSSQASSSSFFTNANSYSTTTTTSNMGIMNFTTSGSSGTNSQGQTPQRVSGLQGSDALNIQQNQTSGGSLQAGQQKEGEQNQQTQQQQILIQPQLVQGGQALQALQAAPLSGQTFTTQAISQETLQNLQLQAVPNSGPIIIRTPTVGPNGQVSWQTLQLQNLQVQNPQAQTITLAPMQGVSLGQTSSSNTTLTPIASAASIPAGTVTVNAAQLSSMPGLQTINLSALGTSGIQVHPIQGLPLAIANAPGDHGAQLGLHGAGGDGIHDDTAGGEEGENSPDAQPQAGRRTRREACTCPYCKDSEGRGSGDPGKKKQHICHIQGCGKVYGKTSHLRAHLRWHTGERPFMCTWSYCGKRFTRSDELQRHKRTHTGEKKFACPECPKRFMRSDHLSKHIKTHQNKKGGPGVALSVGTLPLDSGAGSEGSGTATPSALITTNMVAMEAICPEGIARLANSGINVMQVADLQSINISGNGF
Notes: k-mer, scored over probes, only values ≥0.25
Oligonucleotide | E-score
GGGCGGAA | 0.381
CACCCTAC | 0.274
CATTTACC | 0.276
TATATATA | 0.288
CCCTCCCG | 0.401
GGGAGGGA | 0.416
ATGTACGA | 0.266
CCTACAAC | 0.252
ACGTTATG | 0.306
CACCGCCC | 0.418
CCCTCCCC | 0.469
TATGGGGA | 0.337
GTATATAA | 0.274
ATATACAT | 0.259
ACCCACCT | 0.264
GTCTAGTA | 0.283
AGGGGGGA | 0.287
CTACCCCA | 0.26
CCCCACAC | 0.345

Repeated from above (set 4):
Oligonucleotide | E-score
GGGCGGAA | 0.381
CACCCTAC | 0.274
CATTTACC | 0.276
TATATATA | 0.288
CCCTCCCG | 0.401
GGGAGGGA | 0.416
ATGTACGA | 0.266
CCTACAAC | 0.252
ACGTTATG | 0.306
CACCGCCC | 0.418
CCCTCCCC | 0.469
